Assay results collected from several papers.
A part holds a random share of what one study measured.

Sample 1
Target: Sal-like protein 4, full length isoform B (SALL4, Homo sapiens, UniProt Q9UJQ4-2, residues 1-616)
Method: universal PBM
Molecule type: double-stranded DNA, one strand shown
Medium: in vitro
Tested at: not given
Notes: 8-mer, flanks averaged, mean of replicates
Reading: higher = stronger binding
Residues (chain): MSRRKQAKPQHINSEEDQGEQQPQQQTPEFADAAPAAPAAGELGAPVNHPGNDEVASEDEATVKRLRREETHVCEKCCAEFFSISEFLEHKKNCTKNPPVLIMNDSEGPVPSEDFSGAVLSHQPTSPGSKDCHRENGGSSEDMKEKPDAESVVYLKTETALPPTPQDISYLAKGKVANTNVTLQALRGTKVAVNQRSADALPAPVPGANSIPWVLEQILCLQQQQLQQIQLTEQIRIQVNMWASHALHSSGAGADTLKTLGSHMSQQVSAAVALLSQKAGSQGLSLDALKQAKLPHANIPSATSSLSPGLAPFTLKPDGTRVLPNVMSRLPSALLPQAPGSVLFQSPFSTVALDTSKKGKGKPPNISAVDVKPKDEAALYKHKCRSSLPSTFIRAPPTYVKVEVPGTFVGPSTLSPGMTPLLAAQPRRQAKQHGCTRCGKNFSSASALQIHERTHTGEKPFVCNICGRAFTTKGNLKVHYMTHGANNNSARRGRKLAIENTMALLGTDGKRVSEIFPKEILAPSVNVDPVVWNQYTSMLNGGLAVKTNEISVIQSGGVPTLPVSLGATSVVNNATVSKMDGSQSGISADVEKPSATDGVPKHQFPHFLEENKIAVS
Sequence | E-score
ATAATCAA | 0.337
CATCTTTC | 0.12
CTGCCCTA | -0.0191
ACGAACGT | 0.0406
ATGTGCGA | -0.0641
ATGTGTCG | 0.0407
GGGATGCA | -0.139
ATTGGTAA | 0.182
TCCTTGAA | 0.0736
AGATCTAT | 0.214
ACCCCGAG | -0.166
GGTTACAA | 0.197
CAAACAGC | -0.0323
GAGAACTC | -0.162
TATAAAAA | 0.425
AGCTTCGA | -0.111
CCTGTTAG | -0.0492
CCTCGTCC | -0.264
CCAGTAGC | -0.119
ACCACCCA | -0.0949
CAACAAGA | 0.0848
AAGAGGGT | -0.0418
TAGACCAA | 0.131
GCGATTAA | 0.0899
ACTCCGGA | -0.054

Sample 2
Target: RING finger protein unkempt homolog, zinc fingers 1-6, GST-SBP tag (UNK, Homo sapiens, UniProt Q9C0B0, residues 30-357)
UniProt Q9C0B0, sequence (30-357, looked up): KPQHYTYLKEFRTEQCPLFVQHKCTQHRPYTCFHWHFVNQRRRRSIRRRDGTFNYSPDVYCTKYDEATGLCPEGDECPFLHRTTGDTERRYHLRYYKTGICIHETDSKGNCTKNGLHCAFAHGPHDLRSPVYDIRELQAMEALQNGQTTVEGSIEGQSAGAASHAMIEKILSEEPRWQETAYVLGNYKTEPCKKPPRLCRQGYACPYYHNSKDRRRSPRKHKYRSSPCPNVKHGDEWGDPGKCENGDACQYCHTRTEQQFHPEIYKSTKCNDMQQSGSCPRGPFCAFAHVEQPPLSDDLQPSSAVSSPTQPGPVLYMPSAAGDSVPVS
Method: RNA Bind-n-Seq
Molecule type: RNA
Medium: in vitro
Tested at: not given
Notes: RNA with constant flanks, ends assumed
Relative to: input RNA pool
Reading: higher = stronger binding
Shared flanks, not repeated: GGGAGUUCUACAGUCCGACGAUC … CAACAGAGGAUUGAGCAUCA
Sequence | bound/input enrichment [ratio]
AAGUUUGGAUUUGAAAUUAGUUUUCCUGAAUUUUGUUUAAAGGGAGUCACACUUAAGAAUUUCCGUACUUCUAAUUUAAAUACUGACUUCCUUGCCAAAAAGAUCAUACCAUCAAAGGAU | 0.451
CUCAAGCUACCAAAAAGGAAGUGGCAAUAGAUUGACUCAGGAUGUCAGAGCUCGGGAUUUCCGCAUUACUGCGUAAAGACUUUUGAAGGGACAGAAGUGAAGAAAUAAGCUGCAAUUUUG | 0.175
GCUGCAUACAUAGAAAAUGCCAAACAGGUUGGCCGCCUUGAGAAUGCAAUCGGUUGGUAUCACCGCCACCCUGGUUAUGGCUGCUGGCUCUCCGGGAUUGAUGUUAGUACACAGAUGCUG | 0.719
UCGGUUUUACACUCGGGAAGCAUUAACAGUGAGACACUAUUGUUUUUCUACUUGUGUGUGCCGUACAGGAAUUAUUCAGAUGCCACGUUUGAAUAAUUCAGAGUGAUGUUAUCUGUGAUA | 0.116
GAUAUGUUUUAUAGGAAUUGGGCACUUAAGGAAAGCUUCAUAAAAGCCAUUGGUGUUGGACCCGGAUUUGAAUUGCAGCGGCUUGAAUUUGAUCUAUCUCCAUUAAACUUGGAUAUAGGC | 0.458
AUUGCCCCGGCAUCUGUCUUUGCUGGGGACUUAAGCUACGCCAUUGCUGGGUUGGUAUUUUCCGAAUACAAAGCCAGUGCACAGUGGUCUGCAGAGCUCUUGGUCAUCAAUUACCGGGGA | 0.123
ACAGAAUGGAGCUAUGGACGUUAAUUUGACCGUCUACUCCAAUCCCCGCCAAGAGACUGGCACCGCUGGACAUCCAACAUACCAAUUUUCUGCUAAUACAGGUCCUGCACAUUACAUGAC | 0.124
GCCGCACUCGGACCCGGGAAGCCGUGCUCUCUCCCCGAUUCUCCGCGGAGGACCCCCGGAAAAUUGUGCAAUGAAUGGUGACACUCGGGCCGCAGUGGUGACCUCACCACCUCCAACCAC | 0.0985
GCCAGAGGGGUUCUCAAGUGUGACAUUACAGAUCUCCAAAUCAUUUGCUCCUUGGGAUACCGCAUUCUUCUCAUGGUCACAUGUACUGUGUAUGCCAUCAAGACUCGGGGUGUACCCGAG | 0.117
GGGAACCCUGCCUGUUCAGCCCAGGUGCAGCAUGUCUCGCCUUCCAUUUUCCCAGCUCAUUCCGCAAGUGUAUCAGCUCCAUUGUUACCCUCAGUGGAAAGUGUCCUAAGUCCAAAUAUA | 0.312
CUGGGGAGUGUCCAGGGUUGGACAAAGCUCCACAGUGACUCUUUACGUAUGGAUGGGGACACCGAUAAGUUUAUAUCUAGGUGAAUACUAACUUGUUCCUUACUAUGAAUUCUAAAGUAC | 0.178

Sample 3
Target: Ras GTPase-activating protein-binding protein 1, full length (G3BP1, Homo sapiens, UniProt Q13283)
UniProt Q13283, sequence (whole entry, looked up): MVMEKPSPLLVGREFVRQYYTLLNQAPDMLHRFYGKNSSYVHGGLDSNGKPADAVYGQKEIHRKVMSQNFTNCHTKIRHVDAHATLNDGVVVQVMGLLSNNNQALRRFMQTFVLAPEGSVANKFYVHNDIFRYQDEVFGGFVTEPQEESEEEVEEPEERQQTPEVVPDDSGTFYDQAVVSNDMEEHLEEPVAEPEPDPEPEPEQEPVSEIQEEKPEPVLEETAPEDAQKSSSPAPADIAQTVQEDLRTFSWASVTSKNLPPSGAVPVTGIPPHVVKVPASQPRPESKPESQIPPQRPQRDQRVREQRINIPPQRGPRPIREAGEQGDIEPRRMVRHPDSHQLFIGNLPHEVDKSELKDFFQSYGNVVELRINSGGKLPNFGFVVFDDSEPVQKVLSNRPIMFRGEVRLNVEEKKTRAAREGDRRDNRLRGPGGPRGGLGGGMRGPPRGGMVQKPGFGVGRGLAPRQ
Method: RNA Bind-n-Seq
Molecule type: RNA
Medium: in vitro
Tested at: 200 nM
Notes: whole 134-nt RNA, ends assumed
With: 150 mM KCl
Relative to: input library
Reading: higher = stronger binding
Shared flanks, not repeated: GGGAGUUCUACAGUCCGACGAUC … UGGAAUUCUCGGGUGUCAAGG
Sequence | log2 enrichment
GUCCUGUGCUACACAUCGUAUGUACCGAAUCAAAUUUAAAUUUUUUUAAACCCCCAAAAAAGUAUUAUGUUACGCCGUUCGGAUCUGCAC | -0.177
UGGCCCUGGUGGCAUGCGGGGAAGAAGAGGUGGCCUCAUGGAUCGUGGUGGUCCCGGUGGAAUGUUCAGAGGUGGCCGUGGUGGAGACAG | 0.295
AGUCCUGUGCUACACAUCGUAUGUACCGAAUCGGGUGGGAAAAAAAGGGUUUUUGGGAAAGUAUUAUGUUACGCCGUUCGGAUCUGCACU | -0.212
AGUCCUGUGCUACACAUCGUAUGUACCGAAUCAAAUUUAAACCCCCCCAAACCCAAAAAAGUAUUAUGUUACGCCGUUCGGAUCUGCACU | -0.293
ACCAUGCGGGUGGGCAUCUUUGGGAAGUGGGGCAAGGGGGGGAUAGGGAGGGGGGUAACACUUUGGGAACAGGUGGUCCCAGGUCGUUUC | 1.29
UGCAUGUGCACUGAUAGGCCAAGGCCAGCUGAACCAGGCCAUGAAAAUCCUACAAAAAGCUGAAGGUUGGAAGUUUGUUAAACUUAUCUG | -1.42
CCUGUGCUACACAUCGUAUGUACCGAAUCGGGAAAAAAAGGGAAAAAGGGAAAAAAAGGGAAAGUAUUAUGUUACGCCGUUCGGAUCUGC | -0.807
AGUCCUGUGCUACACAUCGUAUGUACCGAAUCGGGGUGGGGUUUUUUUGGGGAGGGGAAAGUAUUAUGUUACGCCGUUCGGAUCUGCACU | 0.593
AGUCCUGUGCUACACAUCGUAUGUACCGAAUCAAACCCCCCCAAACCCAAAUUUAAAAAAGUAUUAUGUUACGCCGUUCGGAUCUGCACU | -0.218
GCAGGAAGUAAAAACAAAUGGAAAUGCUUCGGAUAGUGGCAGGGGUGGGGGUUGCCAAGGAAAGGGUGGGAUGGGAGUGGGUAAAGAGUU | 0.524
CAAGUCCUGUGCUACACAUCGUAUGUACCGAAUCGGGGCCCGGCCCGGGGCCCGGAAAGUAUUAUGUUACGCCGUUCGGAUCUGCACUUC | -0.938
UAACUUUAGAGGAGAAUCUGAUGGAUAUGGCAGUGGACGUGGAUUUGGGGAUGGCUAUAAUGGGUAUGGAGGAGGACCUGGAGGUGGCAA | 0.542
AGUCCUGUGCUACACAUCGUAUGUACCGAAUCGGGGUUUGGGGAAAGGGGUUUGGGGAAAGUAUUAUGUUACGCCGUUCGGAUCUGCACU | 0.648
ACCAUGCAGGUGGGCAUAAAUGGGAAGUGGGGCAAGGGGGGGAUAGGGAGGGGGGUAACACUUUGGGAACAGGUGGUCCCAGGUCGUUUC | 1.05

Sample 4
Target: RNA binding protein fox-1 homolog 2, RRM domain, GST-SBP tag (RBFOX2, Homo sapiens, UniProt O43251-10, residues 100-194)
Method: RNA Bind-n-Seq
Molecule type: RNA
Medium: in vitro
Tested at: 365 nM
Notes: natural RNA segment, single round, ends assumed
Relative to: no-protein control
Reading: higher = stronger binding
Shared flanks, not repeated: GGGAGUUCUACAGUCCGACGAUC … UGGAAUUCUCGGGUGCCAA
Target sequence (chain): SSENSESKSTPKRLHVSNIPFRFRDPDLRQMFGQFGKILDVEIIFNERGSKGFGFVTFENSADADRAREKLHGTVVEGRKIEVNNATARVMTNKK
Sequence | RBNS enrichment (R)
CUUUCCCUCCAUUUCUGUGGCUUCCACGUCUGCAGUGGCCACUGAUACUCACUUGAGUCAGGCUCCCUCUGGCAGGAGGGAGCACUGUGGAUGUCUGCGCCAGGGCCAGC | 0.592
AGAAUCUGUAAGCUAAUAAAAUGUAAGAAAAGGUUAAAAAAAGAAUAGGUAAAUUGACAAGAAGUAUUUAUUGUUUUUCCAUAUUGCUUUAUUGCCUUCCUUGGGGAUAA | 0.653
CUUGUCCCGCCUCAUCCACAGAAAGGGAGGAUGGGCGAUGACAGUUGUUUCUAUGCCUUCUGACCCAGUUUCCCAGUUUAUAACUUUAUGACAAUGAGUUUCUCAAGCCC | 0.638
UGUCUCAUGUUUUAUAUGAUUAAAUUAUCAUUGUUUGUCCUUUAUGUAUUCUCUUCUACAAUACAACACAUUGAAACUGUAUUUACUUGUUAUGUUGUAAUAUUUUGCUG | 0.954
CUGACAGAAUCCUAAGACGUGAGUUGCUCAUUGUAAAACUAGAAUGUGAAGUGAAGUCACGGAACAAGAUGCUGCUGUUGGGACCUUGAGACCAAAAUUUCAGAGCCCUU | 0.298
CAUCAAACGUGCCUUAAAGCUAAAGCAUUUUGACAGGAGUAUUUAAACUUAGUCCAGGAUAUUUUCCUUUGUGUUUUAUAACUUUACAGAGGACCAAAGCAAUUCUUGUU | 0.312
UUGAAAUUUCUUUAUUAAUCGAUGAAAUAUGAAUUCUAAAUUCUAGCAUUGAAGCUUUUCACCAAAAGAAGUCUCUCCAAAAUAAAUCUUUUGCAGCAAAGUGAUAUUUA | 0.948
AUUUGGAAACUACAGUAAAGAAACCUUCAGAUACCAGUUCCAUCCUGAAGCCCUCUGUUGAACAACAGGGCCAGAUCCUAAAGCUCUUUCAGGGAGCUCUUCUCUGGGGC | 0.276
CUGUGUCCCUGUCUUAGUCAGAACCUCUGUCCUUUCCUCACCAACUAACAUGUGCCAGCCAGGCAGAGUCUCGGGCUGCCCCCAAGAUAGGACCACAGUGAACAAGAGCA | 0.542
UAUGAGUUCAUAUGUGGAAGAAAACUGGUGUUUUAGUAAAACCAAGUUCUUGACAUUAAUCUGUUGAGUUGUGGAUACUGGAAACCAUUUGUGUGUUCAAUCAGAUAAUU | 0.479
GCCUGAGACACAUGGAGAGUUGGUCAGGCUGCUGCUGGGAGAAAUGGACGCCCACUGGGCCUCAACUUGAUCUUCUACCCCGUGCCUGUGACUCAGACUGGGAAAUACUG | 0.397
UUUUAAAAAUACCAACUUGUAUGCACUUUAGAAUGUAAAAUAACAGUGGAUACUUAAGACUCAAAGAGCCACCACUACUUUAUUUUUUAUACACUUGGUCUUUCCAUGUA | 1.41

A few entries again (sample 1):
Sequence | E-score
CCTCGTCC | -0.264
ACCACCCA | -0.0949
AGATCTAT | 0.214
ACCCCGAG | -0.166
